Assay results from different studies.
Numbered parts are unrelated; each lists some results of a single study.
UniProt Q8TDC3, sequence (whole entry, looked up): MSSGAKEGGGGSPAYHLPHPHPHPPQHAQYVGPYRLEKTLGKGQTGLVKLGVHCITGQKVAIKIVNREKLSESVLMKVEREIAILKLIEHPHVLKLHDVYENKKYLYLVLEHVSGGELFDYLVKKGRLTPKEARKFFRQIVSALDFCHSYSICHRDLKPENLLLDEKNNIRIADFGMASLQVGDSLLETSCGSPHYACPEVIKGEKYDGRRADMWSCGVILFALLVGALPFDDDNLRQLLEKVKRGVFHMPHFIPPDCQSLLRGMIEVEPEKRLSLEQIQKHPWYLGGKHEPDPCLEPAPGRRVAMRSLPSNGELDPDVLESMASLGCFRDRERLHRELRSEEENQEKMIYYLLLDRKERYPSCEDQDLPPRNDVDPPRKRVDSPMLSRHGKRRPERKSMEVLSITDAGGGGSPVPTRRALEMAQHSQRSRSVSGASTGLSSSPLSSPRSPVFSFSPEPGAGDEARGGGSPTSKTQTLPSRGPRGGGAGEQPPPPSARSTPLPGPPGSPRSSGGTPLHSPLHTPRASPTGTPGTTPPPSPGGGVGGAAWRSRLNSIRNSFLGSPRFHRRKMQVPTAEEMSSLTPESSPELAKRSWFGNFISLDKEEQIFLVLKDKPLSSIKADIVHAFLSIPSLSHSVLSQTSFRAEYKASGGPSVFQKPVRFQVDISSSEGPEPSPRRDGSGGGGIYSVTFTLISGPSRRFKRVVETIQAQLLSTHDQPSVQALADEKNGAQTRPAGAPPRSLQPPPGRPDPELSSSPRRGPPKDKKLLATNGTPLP
UniProt Q9UM73, sequence (whole entry, unmodified, looked up): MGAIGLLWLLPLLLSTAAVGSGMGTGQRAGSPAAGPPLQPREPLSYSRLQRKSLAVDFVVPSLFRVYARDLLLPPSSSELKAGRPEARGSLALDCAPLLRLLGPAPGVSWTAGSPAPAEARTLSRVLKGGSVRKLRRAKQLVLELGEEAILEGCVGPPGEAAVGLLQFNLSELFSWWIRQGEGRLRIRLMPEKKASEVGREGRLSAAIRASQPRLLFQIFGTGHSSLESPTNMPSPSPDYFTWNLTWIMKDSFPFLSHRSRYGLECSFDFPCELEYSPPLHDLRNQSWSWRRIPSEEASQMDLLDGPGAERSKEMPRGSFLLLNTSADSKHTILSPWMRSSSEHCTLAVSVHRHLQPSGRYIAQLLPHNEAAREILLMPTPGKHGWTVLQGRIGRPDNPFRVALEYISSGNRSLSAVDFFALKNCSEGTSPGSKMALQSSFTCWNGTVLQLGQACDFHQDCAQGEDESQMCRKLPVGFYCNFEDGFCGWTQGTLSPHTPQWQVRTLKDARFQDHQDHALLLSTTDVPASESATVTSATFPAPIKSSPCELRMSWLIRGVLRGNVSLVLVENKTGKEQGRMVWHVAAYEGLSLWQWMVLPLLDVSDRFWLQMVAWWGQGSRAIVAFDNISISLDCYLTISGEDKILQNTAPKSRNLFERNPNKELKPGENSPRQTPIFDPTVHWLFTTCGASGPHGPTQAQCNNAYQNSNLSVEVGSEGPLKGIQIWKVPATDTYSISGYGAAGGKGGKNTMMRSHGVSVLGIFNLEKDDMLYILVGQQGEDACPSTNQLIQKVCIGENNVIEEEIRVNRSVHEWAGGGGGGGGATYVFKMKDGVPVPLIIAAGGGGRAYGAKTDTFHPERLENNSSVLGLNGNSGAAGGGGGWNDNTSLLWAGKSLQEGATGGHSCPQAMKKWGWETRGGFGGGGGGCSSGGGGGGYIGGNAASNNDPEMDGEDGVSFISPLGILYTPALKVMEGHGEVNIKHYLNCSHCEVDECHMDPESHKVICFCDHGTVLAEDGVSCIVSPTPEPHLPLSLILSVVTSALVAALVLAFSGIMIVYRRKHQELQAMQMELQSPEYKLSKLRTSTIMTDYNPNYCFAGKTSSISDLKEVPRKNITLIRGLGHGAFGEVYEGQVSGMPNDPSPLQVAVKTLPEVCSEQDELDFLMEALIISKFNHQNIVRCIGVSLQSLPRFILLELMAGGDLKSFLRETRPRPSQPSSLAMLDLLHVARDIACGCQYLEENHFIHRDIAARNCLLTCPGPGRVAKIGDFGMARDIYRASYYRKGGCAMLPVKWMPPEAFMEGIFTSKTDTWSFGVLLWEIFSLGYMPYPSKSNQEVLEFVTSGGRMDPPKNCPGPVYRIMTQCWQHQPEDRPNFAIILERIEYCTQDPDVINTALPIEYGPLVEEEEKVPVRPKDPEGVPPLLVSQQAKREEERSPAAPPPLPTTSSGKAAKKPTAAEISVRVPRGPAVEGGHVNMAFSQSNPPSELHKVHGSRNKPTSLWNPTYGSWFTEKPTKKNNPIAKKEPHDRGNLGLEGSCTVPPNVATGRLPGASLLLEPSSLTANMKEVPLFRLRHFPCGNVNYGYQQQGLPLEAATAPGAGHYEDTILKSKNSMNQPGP
UniProt Q09013, sequence (whole entry, looked up): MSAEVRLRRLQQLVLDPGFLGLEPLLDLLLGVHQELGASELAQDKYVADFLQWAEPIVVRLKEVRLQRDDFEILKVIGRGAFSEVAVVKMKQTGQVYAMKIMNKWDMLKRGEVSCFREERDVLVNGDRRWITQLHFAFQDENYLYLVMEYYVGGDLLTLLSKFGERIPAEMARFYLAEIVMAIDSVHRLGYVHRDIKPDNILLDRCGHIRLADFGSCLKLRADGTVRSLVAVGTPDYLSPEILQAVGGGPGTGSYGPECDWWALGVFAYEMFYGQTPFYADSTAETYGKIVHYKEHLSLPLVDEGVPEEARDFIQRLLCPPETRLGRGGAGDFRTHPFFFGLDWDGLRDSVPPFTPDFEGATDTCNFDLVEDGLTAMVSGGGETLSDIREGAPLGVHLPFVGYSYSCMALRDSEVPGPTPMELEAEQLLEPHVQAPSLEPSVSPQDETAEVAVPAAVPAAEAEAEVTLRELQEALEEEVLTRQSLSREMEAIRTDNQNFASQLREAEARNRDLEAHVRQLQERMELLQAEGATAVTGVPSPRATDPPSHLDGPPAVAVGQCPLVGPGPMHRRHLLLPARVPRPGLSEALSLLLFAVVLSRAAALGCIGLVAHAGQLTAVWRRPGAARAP
UniProt O96013, sequence (whole entry, looked up): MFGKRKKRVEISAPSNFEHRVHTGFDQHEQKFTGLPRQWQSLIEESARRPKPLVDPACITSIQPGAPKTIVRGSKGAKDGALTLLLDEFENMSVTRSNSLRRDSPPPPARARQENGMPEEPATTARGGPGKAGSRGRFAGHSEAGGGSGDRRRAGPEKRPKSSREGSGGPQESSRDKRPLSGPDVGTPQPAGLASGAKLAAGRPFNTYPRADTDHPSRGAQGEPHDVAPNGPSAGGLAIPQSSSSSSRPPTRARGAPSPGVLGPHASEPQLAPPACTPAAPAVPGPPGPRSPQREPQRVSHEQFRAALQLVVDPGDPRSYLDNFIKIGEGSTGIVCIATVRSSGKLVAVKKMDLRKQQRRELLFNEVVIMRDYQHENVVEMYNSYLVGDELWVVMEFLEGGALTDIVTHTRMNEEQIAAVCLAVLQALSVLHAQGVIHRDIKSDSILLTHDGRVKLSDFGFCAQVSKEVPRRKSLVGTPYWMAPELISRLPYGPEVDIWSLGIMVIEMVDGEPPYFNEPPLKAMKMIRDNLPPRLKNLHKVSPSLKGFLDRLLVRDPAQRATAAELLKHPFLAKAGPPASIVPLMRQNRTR
UniProt O00238, sequence (whole entry, looked up): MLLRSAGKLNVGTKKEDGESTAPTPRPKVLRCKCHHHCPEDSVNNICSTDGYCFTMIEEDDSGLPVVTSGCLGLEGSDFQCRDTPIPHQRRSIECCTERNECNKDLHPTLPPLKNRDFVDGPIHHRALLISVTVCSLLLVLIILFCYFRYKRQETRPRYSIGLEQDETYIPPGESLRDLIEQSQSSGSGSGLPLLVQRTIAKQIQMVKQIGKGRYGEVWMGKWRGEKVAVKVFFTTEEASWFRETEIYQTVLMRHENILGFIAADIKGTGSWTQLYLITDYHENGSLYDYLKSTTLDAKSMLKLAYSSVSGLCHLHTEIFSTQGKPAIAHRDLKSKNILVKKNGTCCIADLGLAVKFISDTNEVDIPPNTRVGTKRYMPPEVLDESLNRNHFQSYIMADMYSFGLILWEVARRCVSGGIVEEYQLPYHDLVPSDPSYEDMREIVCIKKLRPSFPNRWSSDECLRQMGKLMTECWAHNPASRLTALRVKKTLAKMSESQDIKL

Block 1
SMILES: CCCOc1ccc([C@@H]2[C@@H](C(=O)O)[C@H](c3ccc4c(c3)OCO4)CN2CC(=O)Nc2c(CC)cccc2CC)cc1
Concentration: 1 µM
target	observed	method	remaining binding
FLT3 (Homo sapiens, UniProt P36888, D835Y)	cell-free assay	competition with immobilised ligand	100%
BRSK1 (Homo sapiens, UniProt Q8TDC3)	cell-free assay	competition with immobilised ligand	100%
DMPK (Homo sapiens, UniProt Q09013)	cell-free assay	competition with immobilised ligand	86%
PRKD3 (Homo sapiens, UniProt O94806)	cell-free assay	competition with immobilised ligand	86%
ALK (Homo sapiens, UniProt Q9UM73)	cell-free assay	competition with immobilised ligand	100%
PRPF4B (Homo sapiens, UniProt Q13523)	cell-free assay	competition with immobilised ligand	100%
COQ8A (Homo sapiens, UniProt Q8NI60)	cell-free assay	competition with immobilised ligand	100%
SIK1 (Homo sapiens, UniProt P57059)		competition binding	100%
PAK4 (Homo sapiens, UniProt O96013)	cell-free assay	competition with immobilised ligand	91%
MAP2K7 (Homo sapiens, UniProt O14733)	cell-free assay	competition with immobilised ligand	91%
CDKL3 (Homo sapiens, UniProt Q8IVW4)	cell-free assay	competition with immobilised ligand	95%
MTOR (Homo sapiens, UniProt P42345)	cell-free assay	competition with immobilised ligand	100%
RET (Homo sapiens, UniProt P07949, M918T)	cell-free assay	competition with immobilised ligand	97%
CDK2 (Homo sapiens, UniProt P24941)	cell-free assay	competition with immobilised ligand	87%
STK17B (Homo sapiens, UniProt O94768)	cell-free assay	competition with immobilised ligand	93%
BMPR1B (Homo sapiens, UniProt O00238)	cell-free assay	competition with immobilised ligand	82%
BTK (Homo sapiens, UniProt Q06187)	cell-free assay	competition with immobilised ligand	72%
ALK (Homo sapiens, UniProt Q9UM73, C1156Y)	cell-free assay	competition with immobilised ligand	79%
WNK2 (Homo sapiens, UniProt Q9Y3S1)	cell-free assay	competition with immobilised ligand	88%
Ribosomal protein S6 kinase alpha-5, C-terminal kinase domain (RPS6KA5, Homo sapiens, UniProt O75582)	cell-free assay	competition with immobilised ligand	97%
EIF2AK2 (Homo sapiens, UniProt P19525)	cell-free assay	competition with immobilised ligand	100%
EPHA5 (Homo sapiens, UniProt P54756)	cell-free assay	competition with immobilised ligand	100%

Block 2
Target: SRSF protein kinase 2 (SRPK2, Homo sapiens, UniProt P78362)
UniProt P78362, sequence (whole entry, looked up): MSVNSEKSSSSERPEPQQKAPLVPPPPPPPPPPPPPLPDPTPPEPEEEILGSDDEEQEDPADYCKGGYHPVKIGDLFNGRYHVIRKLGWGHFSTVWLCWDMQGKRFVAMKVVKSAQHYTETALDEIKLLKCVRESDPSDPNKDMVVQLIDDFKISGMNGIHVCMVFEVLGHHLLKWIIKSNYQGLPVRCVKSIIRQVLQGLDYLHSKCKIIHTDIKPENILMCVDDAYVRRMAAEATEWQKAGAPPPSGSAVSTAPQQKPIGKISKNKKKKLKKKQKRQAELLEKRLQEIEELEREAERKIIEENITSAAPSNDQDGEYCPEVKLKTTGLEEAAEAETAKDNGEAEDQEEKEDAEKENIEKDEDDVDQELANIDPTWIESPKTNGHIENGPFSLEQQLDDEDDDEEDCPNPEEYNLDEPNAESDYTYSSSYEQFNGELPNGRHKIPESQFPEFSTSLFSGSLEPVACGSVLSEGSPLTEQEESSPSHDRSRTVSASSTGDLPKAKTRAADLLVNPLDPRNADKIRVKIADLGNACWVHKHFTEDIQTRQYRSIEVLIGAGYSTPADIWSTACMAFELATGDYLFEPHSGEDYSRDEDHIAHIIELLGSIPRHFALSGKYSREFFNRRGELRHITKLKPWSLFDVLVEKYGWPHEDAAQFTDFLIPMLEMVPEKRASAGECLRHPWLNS
Observed: enzyme activity
Action: inhibitor
Concentration: 0.5 µM
Relative to: control
SMILES	remaining activity
O=C1c2ccccc2-c2nc3nnnn3nc21	95.8%
FC(F)(F)c1ccc(/C=C/c2nc(COc3ccc(CCCCn4ccnn4)cc3)co2)cc1	101%
CC(C)(C)c1nc2c3cc[nH]c(=O)c3c3cc(F)ccc3c2[nH]1	70.5%
COc1cc2c(N3CCN(C(=O)Nc4ccc(OC(C)C)cc4)CC3)ncnc2cc1OCCCN1CCCCC1	103%
CCN(CC)CCCCN1c2ccccc2Oc2ccc(Cl)cc21	109%
O=C(O)/C=C/c1cc(Br)c(Br)c(Br)c1Br	62%
O=Nc1c(-c2c(O)[nH]c3ccccc23)[nH]c2ccccc12	91.3%
COc1cc2c(Nc3ccc(Br)cc3F)ncnc2cc1OCC1CCN(C)CC1	106%
Clc1ccc(Nc2nnc(Cc3ccncc3)c3ccccc23)cc1	96.5%
O=c1c(-c2ccc(F)cc2)c(-c2ccncc2)[nH]n1-c1ccc(Cl)cc1	94.4%
CCCCc1c(-c2ccc(O)cc2)[nH]c2nccnc12	110%
N#CC(c1ccnc(NCCc2cccnc2)n1)c1nc2ccccc2s1 (stereo not shown)	97.1%
CNc1cc2c(Nc3cccc(Br)c3)ncnc2cn1	89.4%
N#C/C(=C(/N)SC1C=CC=CC1)c1cccc(C(O)c2ccncc2)c1 (stereo not shown)	104%
O=C1NC(=O)/C(=C/c2ccc3c(c2)OC(F)(F)O3)S1	105%
NC(=O)c1cccc(-c2cc(Nc3ccc(OC(F)(F)F)cc3)ncn2)c1	105%
C[C@@H](N)[C@H]1CC[C@H](C(=O)Nc2ccncc2)CC1	87.8%
CC(C)n1cnc2c(Nc3cccc(Cl)c3)nc(NCCO)nc21	37.1%
c1cc(-c2cnn3cc(-c4ccc(OCCN5CCCCC5)cc4)cnc23)ccn1	103%
CC(C)N(CCC(=O)c1ccc2ccccc2c1)Cc1ccccc1	99.1%
NC(=O)c1ccc(-c2nc(-c3ccc4c(c3)OCCO4)c(-c3ccccn3)[nH]2)cc1	95.3%
Nc1nc(Nc2ccc(S(N)(=O)=O)cc2)nn1C(=S)Nc1c(F)cccc1F	17.1%
O=C(c1ccccc1)c1ccc(N2CCOCC2)cc1O	102%

Block 3
Species: mouse
Sample: microsomes or S9
Concentration: 2 µM
Time: 0.5 h
Structure (SMILES)	remaining compound
CCOc1cccc(CNCc2cccnc2)c1OCc1ccc(C)cc1	0.442%
CC(=O)CCS(=O)(=O)c1ccc(-c2ccc(S(=O)(=O)CCC(C)=O)cc2)cc1	8.67%
N#Cc1cnc(N[C@H]2CC[C@H](Nc3cnc(C#N)cn3)CC2)cn1	> 99%
Nc1nn(Cc2ccc(F)cc2Cl)cc1Cl	58.9%
CCN1CCN(CCCNC(=O)c2oc3ccc4c(c3c2C)C(O)CC(C)(C)O4)CC1 (stereo not shown)	96%
Cc1ccc(-c2n[nH]c3c2C(c2cccnc2)N(c2ccc(Cl)cc2)C3=O)cc1 (stereo not shown)	9.1%
COc1c(-c2ccccc2)oc2ccccc2c1=O	0.152%
CC1=CC(=O)c2ccccc2C1=O	51.6%
N=C(NS(=O)(=O)c1ccccc1)c1ccccc1	77.2%
CC(C)COc1cc(=O)n2c(c1C(=O)NCC1CCCCC1)CCCCC2	0.281%
CCOC(=O)c1cc(C(=O)OCC)n(CCCC#N)c1	2.01%

Block 4
SMILES: CN1CCN(C(=O)c2ccc(NC(=O)Nc3ccc(N(C)c4ccnc(Nc5ccc(CS(C)(=O)=O)cc5)n4)cc3)cc2)CC1
Concentration: 1 µM
target	method	item	setting	relative to	remaining binding
RAF1 (Homo sapiens, UniProt P04049)	competitive binding panel			vehicle	90%
MAPK12 (Homo sapiens, UniProt P53778)	competitive binding		p38-gamma		100%
STK38L (Homo sapiens, UniProt Q9Y2H1)	competitive binding panel	NDR2		vehicle	100%
BUB1 (Homo sapiens, UniProt O43683)	competitive binding panel			vehicle	46%
CSNK1G2 (Homo sapiens, UniProt P78368)	competitive binding panel			vehicle	100%
DMPK (Homo sapiens, UniProt Q09013)	competitive binding panel			vehicle	100%
MAPK4 (Homo sapiens, UniProt P31152)	competitive binding panel	ERK4		vehicle	100%
BRSK1 (Homo sapiens, UniProt Q8TDC3)	competitive binding panel			vehicle	100%
